{"data": "Assay results collected from several papers", "note": "Compare with care: the assays were run in different laboratories. Numbers after ± are the reported error."}
{"Compound": "CCCC[C@H](NC(=O)CNC(=O)CNC(=O)CN1CCN(CC(=O)O)CCN(CC(=O)O)CC1)C(=O)N[C@H]1CC(=O)NCCCC[C@@H](C(N)=O)NC(=O)[C@H](Cc2c[nH]c3ccccc23)NC(=O)[C@H](CCCNC(=N)N)NC(=O)[C@@H](Cc2ccccc2)NC(=O)[C@H](Cc2c[nH]cn2)NC1=O [gallium-67 labelled]", "test system": "female C57 mouse B16/F1 melanoma, normal organs except kidney", "setting": "intravenous, 0.037 MBq, 24 h", "tissue uptake": "< 1.62 %ID/g"}
{"Compound": "O=C(O)CCC(NP(=O)(O)OCCC[C@@H](NC(=O)CC[C@H](NC(=O)CCCCCNC(=O)c1ccc([18F])cc1)C(=O)O)C(=O)O)C(=O)O (some centres unmarked)", "test system": "mouse, CWR22Rv1 xenograft, muscle", "setting": "dose not given, 4 h, blocking agent pre-dosed", "tissue uptake": "0.013 ± 0.002 %ID/g"}
{"Compound": "COC(=O)c1ccc(-c2cn(Cc3cc(Cl)ccc3O[11CH3])nn2)cc1", "assay": "PET/CT", "test system": "C57BL/6 mouse, muscle", "setting": "60 min", "tissue uptake": "0.66 %ID/cc"}
{"Compound": "O=C([O-])CN1CCN(CC(=O)[O-])CCN(CC(=O)NCCc2ccc3c(c2)C2C=CCC2C(c2cc4c(cc2Br)OCO4)N3)CCN(CC(=O)[O-])CC1.[111In+3] (centres unmarked)", "test system": "mouse, Hec50 endometrial tumour, heart", "setting": "0.5 h post injection", "tissue uptake": "5.87 ± 0.55 %ID/g"}
{"Compound": "CN(C)c1ccc(-c2nc3ccc(OCCCCCN4CCN5CCN(CC4)CC(=O)[O][Al]([18F])[O]C(=O)C5)cc3s2)cc1", "test system": "ICR mouse, kidney", "setting": "intravenous, 10 min", "tissue uptake": "8.06 ± 2.28 %ID/g"}
{"Compound": "CC(C)[C@H](NC(=O)[C@@H]1CCCN1C(=O)[C@H](CCCNC(=N)N)NC(=O)[C@H](CS)NC(=O)[C@H](Cc1c[nH]c2ccccc12)NC(=O)[C@H](CCCNC(=N)N)NC(=O)[C@@H](Cc1ccccc1)NC(=O)[C@H](Cc1c[nH]cn1)NC(=O)[C@H](CCC(=O)O)NC(=O)[C@H](CS)NC(=O)[C@H](CS)NC(=O)CNC(=O)[C@@H]1CC(=O)N[C@@H](CCCNC(=N)N)C(=O)NCC(=O)N[C@@H](CC(=O)O)C(=O)N[C@H](Cc2ccc(O)cc2)C(=O)N1)C(N)=O [technetium-99m labelled]", "test system": "C57 mouse, female, B16/F1 melanoma, blood", "setting": "intravenous, 0.037 MBq, 24 h", "tissue uptake": "0.32 ± 0.44 %ID/g"}
{"Compound": "CCCC[C@H](NC(=O)CNC(=O)CNC(=O)CN1CCN(CC(=O)O)CCN(CC(=O)O)CCN(CC(=O)O)CC1)C(=O)N[C@H]1CC(=O)NCCCC[C@@H](C(N)=O)NC(=O)[C@H](Cc2c[nH]c3ccccc23)NC(=O)[C@H](CCCNC(=N)N)NC(=O)[C@@H](Cc2ccccc2)NC(=O)[C@H](Cc2c[nH]cn2)NC1=O [lead-203 labelled]", "test system": "C57 mouse, pancreas", "setting": "intravenous, 0.056 MBq, 24 h", "tissue uptake": "0.09 ± 0.03 %ID/g"}
{"Compound": "CN1C(=O)[C@@H](Cc2ccc(O)c(I)c2)NC(=O)CNC(=O)[C@H](Cc2ccc3ccccc3c2)NC(=O)[C@H](CCCNC(=N)N)NC(=O)[C@H]1CCCNC(=O)c1ccc(CNC(=O)CN2CCN(CC(=O)O)CCN(CC(=O)O)CC2)cc1 [fluorine-18 labelled]", "assay": "biodistribution", "test system": "SCID mouse, Daudi lymphoma xenograft, bone", "setting": "60 min", "tissue uptake": "2.7 ± 0.13 %ID/g"}
{"Compound": "CCCC[C@H](NC(=O)CNC(=O)CNC(=O)CN1CCN(CC(=O)O)CCN(CC(=O)O)CCN(CC(=O)O)CC1)C(=O)N[C@H]1CC(=O)NCCCC[C@@H](C(N)=O)NC(=O)[C@H](Cc2c[nH]c3ccccc23)NC(=O)[C@H](CCCNC(=N)N)NC(=O)[C@@H](Cc2ccccc2)NC(=O)[C@H](Cc2c[nH]cn2)NC1=O [copper-64 labelled]", "test system": "female C57 mouse, B16/F1 melanoma, stomach", "setting": "intravenous, 0.037 MBq, 24 h", "tissue uptake": "1.21 ± 0.14 %ID/g"}
{"Compound": "CC(C)[C@H](NC(=O)[C@@H]1CCCN1C(=O)[C@H](CCCNC(=N)N)NC(=O)[C@H](CS)NC(=O)[C@H](Cc1c[nH]c2ccccc12)NC(=O)[C@H](CCCNC(=N)N)NC(=O)[C@@H](Cc1ccccc1)NC(=O)[C@H](Cc1c[nH]cn1)NC(=O)[C@H](CCC(=O)O)NC(=O)[C@H](CS)NC(=O)[C@H](CS)NC(=O)COCCOCCNC(=O)[C@@H]1CC(=O)N[C@@H](CCCNC(=N)N)C(=O)NCC(=O)N[C@@H](CC(=O)O)C(=O)N[C@H](Cc2ccc(O)cc2)C(=O)N1)C(N)=O [technetium-99m labelled]", "test system": "nude mouse, M21 melanoma xenograft, brain", "setting": "intravenous, 2 h", "tissue uptake": "0.02 ± 0.01 %ID/g"}
{"Compound": "CCCC[C@H](NC(=O)CNC(=O)CNC(=O)CN1CCN(CC(=O)O)CCN(CC(=O)O)CC1)C(=O)N[C@H]1CC(=O)NCCCC[C@@H](C(N)=O)NC(=O)[C@H](Cc2c[nH]c3ccccc23)NC(=O)[C@H](CCCNC(=N)N)NC(=O)[C@@H](Cc2ccccc2)NC(=O)[C@H](Cc2c[nH]cn2)NC1=O [copper-64 labelled]", "test system": "female C57 mouse, B16/F1 melanoma, brain", "setting": "intravenous, 0.037 MBq, 0.5 h", "tissue uptake": "0.1 ± 0.03 %ID/g"}
{"Compound": "CC(C)[C@H](NC(=O)[C@@H]1CCCN1C(=O)[C@H](CCCNC(=N)N)NC(=O)[C@H](CS)NC(=O)[C@H](Cc1c[nH]c2ccccc12)NC(=O)[C@H](CCCNC(=N)N)NC(=O)[C@@H](Cc1ccccc1)NC(=O)[C@H](Cc1c[nH]cn1)NC(=O)[C@H](CCC(=O)O)NC(=O)[C@H](CS)NC(=O)[C@H](CS)NC(=O)[C@@H]1CC(=O)N[C@@H](CCCNC(=N)N)C(=O)NCC(=O)N[C@@H](CC(=O)O)C(=O)N[C@H](Cc2ccc(O)cc2)C(=O)N1)C(N)=O [technetium-99m labelled]", "test system": "C57 mouse, female, B16/F1 melanoma, skin", "setting": "intravenous, 0.037 MBq, 4 h", "tissue uptake": "0.53 ± 0.07 %ID/g"}
{"Compound": "CCCC[C@H](NC(=O)CN1CCC(NC(=O)CN2CCN(CC(=O)O)CCN(CC(=O)O)CCN(CC(=O)O)CC2)CC1)C(=O)N[C@H]1CC(=O)NCCCC[C@@H](C(N)=O)NC(=O)[C@H](Cc2c[nH]c3ccccc23)NC(=O)[C@H](CCCNC(=N)N)NC(=O)[C@@H](Cc2ccccc2)NC(=O)[C@H](Cc2c[nH]cn2)NC1=O [gallium-68 labelled]", "test system": "C57BL/6J mouse, male, B16-F10 tumour, seminal vesicles", "setting": "1 h p.i., blocking, added: 100 µg non-radioactive blocking agent", "tissue uptake": "0.4 ± 0.2 %ID/g"}
{"Compound": "CC(C)C[C@H](NC(=O)C[C@H](O)[C@H](CC(C)C)NC(=O)[C@H](Cc1c[nH]cn1)NC(=O)CNC(=O)[C@@H](NC(=O)[C@H](C)NC(=O)[C@H](Cc1c[nH]c2ccccc12)NC(=O)[C@H](CCC(N)=O)NC(=O)[C@@H](Cc1ccccc1)NC(=O)CCNC(=O)CCNC(=O)CN1CCN(CC(=O)O)CCN(CC(=O)O)CCN(CC(=O)O)CC1)C(C)C)C(N)=O [lutetium-177 labelled]", "test system": "mouse PC-3 xenograft, tumour", "setting": "intraperitoneal, 200 pmol, 24 h, without PA", "tissue uptake": "4.5 ± 0.7 %ID/g"}
{"note": "For quick reference, copied from above:"}
{"Compound": "CCCC[C@H](NC(=O)CNC(=O)CNC(=O)CN1CCN(CC(=O)O)CCN(CC(=O)O)CCN(CC(=O)O)CC1)C(=O)N[C@H]1CC(=O)NCCCC[C@@H](C(N)=O)NC(=O)[C@H](Cc2c[nH]c3ccccc23)NC(=O)[C@H](CCCNC(=N)N)NC(=O)[C@@H](Cc2ccccc2)NC(=O)[C@H](Cc2c[nH]cn2)NC1=O [lead-203 labelled]", "test system": "C57 mouse, pancreas", "setting": "intravenous, 0.056 MBq, 24 h", "tissue uptake": "0.09 ± 0.03 %ID/g"}
{"Compound": "CC(C)C[C@H](NC(=O)C[C@H](O)[C@H](CC(C)C)NC(=O)[C@H](Cc1c[nH]cn1)NC(=O)CNC(=O)[C@@H](NC(=O)[C@H](C)NC(=O)[C@H](Cc1c[nH]c2ccccc12)NC(=O)[C@H](CCC(N)=O)NC(=O)[C@@H](Cc1ccccc1)NC(=O)CCNC(=O)CCNC(=O)CN1CCN(CC(=O)O)CCN(CC(=O)O)CCN(CC(=O)O)CC1)C(C)C)C(N)=O [lutetium-177 labelled]", "test system": "mouse PC-3 xenograft, tumour", "setting": "intraperitoneal, 200 pmol, 24 h, without PA", "tissue uptake": "4.5 ± 0.7 %ID/g"}
